Earlier results, collected from citations in different studies.
Numbered parts are unrelated; values within a part may stem from several laboratories.

Series 1
Target: Mamu-B*01 macaque
Read-out: peptide-MHC binding
Form: peptide
Molecule | IC50
IDDVTIKI | 33.4 nM
ADDIVEKL | 71.8 nM
EDVVLVRI | 14.2 nM

Further values, each from its own experiment
Compound | tested on | assay | system | setting | scale | measurement | value
N#C/C(=C/c1ccc(O)c(O)c1)C(=O)NCc1ccccc1 | hepatitis C virus |  | HCV-infected cells | concentration not given |  | HCV RNA production | decreased
Cc1cc(/C=C/C#N)cc(C)c1Nc1ccnc(Nc2ccc(C#N)cc2)n1 | Gag-Pol polyprotein, reverse transcriptase (gag-pol, Human immunodeficiency virus 1, UniProt P03366) | inhibitor |  |  |  | IC50 | 15 to 22 nM
COc1ccc2[nH]c([S+]([O-])Cc3ncc(C)c(OC)c3C)nc2c1 (centres unmarked) |  |  | human |  |  | CL | 1.3 to 2 L/h
Cc1ccnc2c1NC(=O)c1cccnc1N2C1CC1 | HIV-1 reverse transcriptase V179D |  |  | cell-based | relative to: mutant over wild type | IC50 fold change | 4.6 fold
CC(C(=O)O)c1ccc(-c2ccccc2)c(F)c1 (centres unmarked) |  |  | human |  |  | CL | 0.12 to 0.15 L/h

A few entries again (further values, each from its own experiment):
Compound | tested on | assay | system | setting | scale | measurement | value
N#C/C(=C/c1ccc(O)c(O)c1)C(=O)NCc1ccccc1 | hepatitis C virus |  | HCV-infected cells | concentration not given |  | HCV RNA production | decreased
